Experimental data collected from several papers.
Each line is one published result; not all experiments were run side by side. ± marks the error that the study gave. In brackets after ≈: the same amount, converted by molar mass. Bridge positions count the residues as written; N and C are the ends. Ends that are not written are not given here. * marks the point of attachment.
Organism: Escherichia coli

Substance | assay | test system | conditions | quantity | result
O=C(Sc1cccccc1=O)c1ccccc1 |  |  |  | MIC80 | ≤ 30 µM
CC[C@H](C)[C@H](NC(=O)[C@H](Cc1ccc(O)cc1)NC(=O)[C@@H](NC(=O)[C@@H]1CCCN1C(=O)[C@H](CCCCN)NC(=O)[C@H](CC(N)=O)NC(=O)[C@H](CC(N)=O)NC(=O)CN)C(C)C)C(=O)N1CCC[C@H]1C(=O)N[C@@H](CCC(N)=O)C(=O)N1CCC[C@H]1C(=O)N[C@@H](CCCNC(=N)N)C(=O)N1CCC[C@H]1C(=O)N1CCC[C@H]1C(=O)N[C@@H](CCCNC(=N)N)C(=O)N1CCC[C@H]1C(=O)N[C@@H](CCCNC(=N)N)C(=O)N[C@@H](CC(C)C)C(=O)O | broth microdilution | BW25113 parental, Mueller-Hinton broth | 18 h, 37 °C | MIC | 0.048 ± 0.011 µM (≈ 0.101 µg/mL)
CC(C)C[C@H](NC(=O)[C@H](C)NC(=O)[C@H](CC(C)C)NC(=O)[C@H](CCCCN)NC(=O)[C@H](CCCCN)NC(=O)[C@H](Cc1c[nH]c2ccccc12)NC(=O)[C@H](CC(C)C)NC(=O)[C@@H]1CCCN1C(=O)[C@H](C)NC(=O)[C@H](CC(C)C)NC(=O)[C@H](CCCCN)NC(=O)[C@H](CCCCN)NC(=O)[C@H](CC(C)C)NC(=O)[C@H](C)NC(=O)[C@H](CC(C)C)NC(=O)[C@H](C)NC(=O)[C@H](CC(C)C)NC(=O)[C@H](CCCCN)NC(=O)[C@@H](N)CCCCN)C(=O)N[C@@H](C)C(=O)N[C@@H](CC(C)C)C(=O)N[C@@H](CCCCN)C(=O)N[C@@H](CCCCN)C(=O)N[C@@H](C)C(N)=O | broth microdilution | NCTC 9001 | overnight, 37 °C | MIC50 | 0.97 ± 0.06 µM (≈ 2.58 µg/mL)
CC[C@H](C)[C@H](NC(=O)CN)C(=O)NCC(=O)N[C@@H](C)C(=O)N[C@H](C(=O)N[C@@H](CC(C)C)C(=O)N[C@@H](CCCCN)C(=O)N[C@H](C(=O)N[C@@H](CC(C)C)C(=O)N[C@H](C(=O)N[C@H](C(=O)NCC(=O)N[C@@H](CC(C)C)C(=O)N1CCC[C@H]1C(=O)N[C@@H](C)C(=O)N[C@@H](CC(C)C)C(=O)N[C@H](C(=O)N[C@@H](CO)C(=O)N[C@@H](Cc1c[nH]c2ccccc12)C(=O)N[C@H](C(=O)N[C@@H](CCCCN)C(=O)N[C@@H](CCCNC(=N)N)C(=O)N[C@@H](CCCCN)C(=O)N[C@@H](CCCNC(=N)N)C(=O)N[C@@H](CCC(N)=O)C(=O)N[C@@H](CCC(N)=O)C(N)=O)[C@@H](C)CC)[C@@H](C)CC)[C@@H](C)O)[C@@H](C)O)C(C)C)C(C)C |  | DH5α | 24 h, 37 °C | MBC | 10 µM (≈ 28.5 µg/mL)
CC(C)C[C@H](NC(=O)[C@H](CCCNC(=N)N)NC(=O)[C@H](CC(C)C)NC(=O)[C@@H](NC(=O)[C@H](CC(C)C)NC(=O)[C@H](Cc1c[nH]cn1)NC(=O)[C@H](CC(C)C)NC(=O)[C@@H](NC(=O)[C@H](C)N)[C@@H](C)O)C(C)C)C(=O)N[C@@H](CCCNC(=N)N)C(=O)NCC(=O)NCC(=O)O |  | DH5α | 37 °C, ≥90% viability decrease | MIC | 10 µM (≈ 13.1 µg/mL)
O=[N+]([O-])CC1C(c2ccc3ccccc3n2)=CN(Cc2ccc(Cl)cc2)c2ccccc21 (stereo not shown) | lacZ reporter expression | VirF-independent lacZ control | 3 h, 37 °C, 6.2% DMSO, with: 1 mM IPTG | IC50 | > 100 µM
CC(C)C[C@H](NC(=O)[C@H](CCCCN)NC(=O)[C@H](CCCCN)NC(=O)[C@H](CC(C)C)NC(=O)[C@H](CCCCN)NC(=O)[C@@H](N)CCCNC(=N)N)C(=O)N[C@@H](Cc1c[nH]c2ccccc12)C(=O)N[C@@H](CCCNC(=N)N)C(=O)N[C@@H](CCCCN)C(=O)N[C@@H](Cc1ccccc1)C(=O)N[C@@H](CCCNC(=N)N)C(=O)O | bacterial killing, colony count | BL21 | 1 h, pH 7, 37 °C | EC50 | 2.9 µg/mL (≈ 1.86 µM)
CC(C)C[C@H](NC(=O)[C@H](C)NC(=O)[C@H](CC(C)C)NC(=O)[C@H](CCCCN)NC(=O)[C@H](CCCCN)NC(=O)[C@H](Cc1c[nH]c2ccccc12)NC(=O)[C@H](CC(C)C)NC(=O)[C@H](CC(C)C)NC(=O)[C@H](C)NC(=O)[C@@H]1CCCN1C(=O)[C@H](CCCCN)NC(=O)[C@H](CCCCN)NC(=O)[C@H](CC(C)C)NC(=O)[C@H](C)NC(=O)[C@H](CC(C)C)NC(=O)[C@H](C)NC(=O)[C@H](CC(C)C)NC(=O)[C@H](CCCCN)NC(=O)[C@@H](N)CCCCN)C(=O)N[C@@H](C)C(=O)N[C@@H](CC(C)C)C(=O)N[C@@H](CCCCN)C(=O)N[C@@H](CCCCN)C(=O)N[C@@H](C)C(N)=O | broth microdilution | TOP10 | overnight, 37 °C | MIC50 | 0.47 ± 0.15 µM (≈ 1.25 µg/mL)
ACPIFTKIQGTYRGKAKCK (disulfide 2-18 (inferred)) (disulfide) |  | K-12 sample A (CGSC sample B) | MBC, 2 h, pH 7.4, 37 °C, with: E. coli K-235 LPS at peptide:LPS 1:5 w/w | antibacterial activity | inhibited
CC(C)C[C@H](NC(=O)[C@H](C)NC(=O)[C@H](CCCCN)NC(=O)[C@H](Cc1c[nH]c2ccccc12)NC(=O)[C@H](CC(C)C)NC(=O)[C@H](CC(C)C)NC(=O)[C@H](C)NC(=O)[C@H](CC(C)C)NC(=O)[C@H](CCCCN)NC(=O)[C@H](C)NC(=O)[C@@H]1CCCN1C(=O)[C@H](C)NC(=O)[C@H](CC(C)C)NC(=O)[C@H](CCCCN)NC(=O)[C@H](CC(C)C)NC(=O)[C@H](CCCCN)NC(=O)[C@@H](N)CCCCN)C(=O)N[C@@H](C)C(=O)N[C@@H](CC(C)C)C(=O)N[C@@H](CCCCN)C(=O)N[C@@H](CC(C)C)C(=O)N[C@@H](CCCCN)C(=O)N[C@@H](CCCCN)C(=O)N[C@@H](C)C(N)=O | broth microdilution | NCTC 9001 | overnight, 37 °C | MIC50 | 0.79 ± 0.41 µM (≈ 2.1 µg/mL)
Clc1ccc(C[n+]2cc(-c3ccc4ccccc4n3)cc3ccccc32)cc1 | lacZ reporter expression | VirF-independent lacZ control | 3 h, 37 °C, 6.2% DMSO, with: 1 mM IPTG | IC50 | > 100 µM
Myristoyl-ACPIFTKIQGTYRGKAKCK (disulfide 2-18 (inferred)) (N-myristoyl, disulfide; Myristoyl = CCCCCCCCCCCCCC(=O)*) |  | K-12 sample A (CGSC sample B) | MBC, 2 h, pH 7.4, 37 °C, with: E. coli K-235 LPS at peptide:LPS 1:5 w/w | antibacterial activity | inhibited
CC(C)C[C@H](NC(=O)[C@H](C)NC(=O)[C@H](CCCCN)NC(=O)[C@H](C)NC(=O)[C@H](CC(C)C)NC(=O)[C@H](CCCCN)NC(=O)[C@H](CC(C)C)NC(=O)[C@H](Cc1c[nH]c2ccccc12)NC(=O)[C@H](CC(C)C)NC(=O)[C@H](CC(C)C)NC(=O)[C@H](C)NC(=O)[C@@H]1CCCN1C(=O)[C@H](CC(C)C)NC(=O)[C@H](CCCCN)NC(=O)[C@H](CC(C)C)NC(=O)[C@H](C)NC(=O)[C@H](CCCCN)NC(=O)[C@H](C)NC(=O)[C@H](CC(C)C)NC(=O)[C@H](CCCCN)NC(=O)[C@@H](N)CCCCN)C(=O)N[C@@H](CCCCN)C(=O)N[C@@H](CCCCN)C(=O)N[C@@H](C)C(N)=O | broth microdilution | NCTC 9001 | overnight, 37 °C | MIC50 | 1.62 ± 0.17 µM (≈ 4.31 µg/mL)
GSS(Octanoyl)FLSPEHQRVQQRKESKKPPAKLQPR (acyl-ghrelin; Octanoyl = CCCCCCCC(=O)*; sequence looked up) | LIVE/DEAD staining | peptide, sodium phosphate buffer | 100 µg/mL, 2 h, pH 6.8, 37 °C | dead bacteria | ~15%
CC(C)C[C@H](NC(=O)[C@H](C)NC(=O)[C@H](CC(C)C)NC(=O)[C@H](CCCCN)NC(=O)[C@H](CC(C)C)NC(=O)[C@H](CCCCN)NC(=O)[C@@H](N)CCCCN)C(=O)N[C@@H](C)C(=O)N[C@@H](CCCCN)C(=O)N[C@@H](CC(C)C)C(=O)N[C@@H](C)C(=O)N[C@@H](CC(C)C)C(=O)N[C@@H](CC(C)C)C(=O)N[C@@H](Cc1c[nH]c2ccccc12)C(=O)N[C@@H](CCCCN)C(=O)N[C@@H](C)C(=O)N[C@@H](CC(C)C)C(=O)N[C@@H](C)C(=O)N[C@@H](CC(C)C)C(=O)N[C@@H](CCCCN)C(=O)N[C@@H](CC(C)C)C(=O)N[C@@H](CCCCN)C(=O)N[C@@H](CCCCN)C(=O)N[C@@H](C)C(N)=O | broth microdilution | TOP10 | overnight, 37 °C | MIC50 | 0.73 ± 0.4 µM (≈ 1.95 µg/mL)
CC[C@H](C)[C@H](NC(=O)[C@H](CCCNC(=N)N)NC(=O)[C@H](Cc1c[nH]c2ccccc12)NC(=O)[C@H](CCCNC(=N)N)NC(=O)[C@@H](N)CCCCN)C(=O)N[C@@H](CCCNC(=N)N)C(=O)N[C@H](C(=O)N[C@@H](CCCNC(=N)N)C(=O)N[C@H](C(=O)N[C@H](C(=O)N[C@@H](CCCNC(=N)N)C(=O)N[C@@H](CCCCN)C(=O)N[C@@H](CS)C(=O)O)[C@@H](C)CC)C(C)C)C(C)C |  | ATCC 25922 | 90, 300, 500 µM, 24 h, biofilm | MBEC | 300 µM

A few entries again:
Substance | assay | test system | conditions | quantity | result
CC(C)C[C@H](NC(=O)[C@H](CCCCN)NC(=O)[C@H](CCCCN)NC(=O)[C@H](CC(C)C)NC(=O)[C@H](CCCCN)NC(=O)[C@@H](N)CCCNC(=N)N)C(=O)N[C@@H](Cc1c[nH]c2ccccc12)C(=O)N[C@@H](CCCNC(=N)N)C(=O)N[C@@H](CCCCN)C(=O)N[C@@H](Cc1ccccc1)C(=O)N[C@@H](CCCNC(=N)N)C(=O)O | bacterial killing, colony count | BL21 | 1 h, pH 7, 37 °C | EC50 | 2.9 µg/mL (≈ 1.86 µM)
CC(C)C[C@H](NC(=O)[C@H](CCCNC(=N)N)NC(=O)[C@H](CC(C)C)NC(=O)[C@@H](NC(=O)[C@H](CC(C)C)NC(=O)[C@H](Cc1c[nH]cn1)NC(=O)[C@H](CC(C)C)NC(=O)[C@@H](NC(=O)[C@H](C)N)[C@@H](C)O)C(C)C)C(=O)N[C@@H](CCCNC(=N)N)C(=O)NCC(=O)NCC(=O)O |  | DH5α | 37 °C, ≥90% viability decrease | MIC | 10 µM (≈ 13.1 µg/mL)
